Measured values collected from several papers.
A part holds a random share of what one study measured. Changes are numbered by the printed parent chain.

Block 1 — technique: DHFR PCA, deep sequencing; matrix: yeast; with: (+)-ABA 17 µM; reference: wild-type fitted maximum; direction: higher = stronger binding; endpoint: relative binding score
Target: ABI1, truncated, D143A, DHFR fusion (Arabidopsis thaliana)
Setting: methotrexate growth selection, single substitutions
Starting sequence: PYL1, truncated, DHFR fusion (Arabidopsis thaliana); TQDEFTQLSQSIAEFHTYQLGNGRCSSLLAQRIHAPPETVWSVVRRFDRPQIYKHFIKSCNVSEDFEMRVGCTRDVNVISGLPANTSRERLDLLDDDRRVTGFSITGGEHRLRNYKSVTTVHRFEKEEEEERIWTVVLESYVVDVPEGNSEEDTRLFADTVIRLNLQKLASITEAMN; partner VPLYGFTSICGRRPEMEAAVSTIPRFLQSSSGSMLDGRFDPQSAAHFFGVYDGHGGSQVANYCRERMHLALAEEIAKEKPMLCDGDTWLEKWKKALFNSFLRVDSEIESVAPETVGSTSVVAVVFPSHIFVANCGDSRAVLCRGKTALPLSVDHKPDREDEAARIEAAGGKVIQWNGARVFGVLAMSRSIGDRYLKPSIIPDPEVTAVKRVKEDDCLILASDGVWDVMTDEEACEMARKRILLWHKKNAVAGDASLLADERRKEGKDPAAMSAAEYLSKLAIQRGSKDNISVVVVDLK
D159L: -6.77%
Y115S: -9.83%
T17E: 57.4%
L29H: 80.7%
H34D: 85.5%
S63F: 47.9%
P146G: 32.5%
V143N: 1.01%
K168Y: 20.8%
D144H: 7.54%
N177E: 69.6%
N61S: 91.3%
S104Q: 10.7%

Block 2 — technique: protein-binding microarray; form: double-stranded DNA, one strand shown; matrix: in vitro; tested at: 250 nM; setting: 60-bp whole probe; with: salmon DNA 0.4 mg/ml; reference: random background probes; direction: higher = stronger binding; endpoint: log fluorescence; shared flanks, not repeated: GCCTAGCAC … GTCTTGATTCGCTTGACGCTGCTG
Target: Interferon regulatory factor 7, full length, phosphomimetic (IRF7, Homo sapiens, UniProt Q92985, residues 1-503, S101K/S471D/S472D/S475D/S476D/S477D/S483D/S484D/S487D)
Residues (chain): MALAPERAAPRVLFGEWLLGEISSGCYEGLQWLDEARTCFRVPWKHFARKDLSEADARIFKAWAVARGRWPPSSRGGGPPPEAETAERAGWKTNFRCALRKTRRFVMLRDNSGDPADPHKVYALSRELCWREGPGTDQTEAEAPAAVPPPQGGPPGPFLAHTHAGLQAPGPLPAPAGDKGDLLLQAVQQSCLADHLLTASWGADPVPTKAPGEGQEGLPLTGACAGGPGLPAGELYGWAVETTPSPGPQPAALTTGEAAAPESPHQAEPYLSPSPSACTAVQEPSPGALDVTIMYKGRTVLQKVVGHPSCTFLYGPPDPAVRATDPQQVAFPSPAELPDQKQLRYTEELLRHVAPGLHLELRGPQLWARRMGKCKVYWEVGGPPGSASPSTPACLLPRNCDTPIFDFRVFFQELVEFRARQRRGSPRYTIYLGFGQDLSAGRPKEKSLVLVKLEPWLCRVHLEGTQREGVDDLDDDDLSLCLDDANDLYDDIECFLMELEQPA
TTAAGTTTCGGTCTCGGTTAGTGCTAG: 9.52 z-score
GACGATTCCGGGACTGGAGACGTGCTA: -0.324 z-score
GACGATCTCAGTATCCAGACGTGCTAG: -0.269 z-score
GACGGACTGGGAACTGGGGACGTGCTA: -0.599 z-score
TTAGGACTGGGACAGGGTTAGTGCTAG: 0.175 z-score
TCACTTCTTTTTTATTCTACTGTGCTA: 1.36 z-score
GACGGACTGCTTCTCCTTACGTGCTAG: -0.278 z-score
CAGAAGCCAGAGAGGACAGGGTGCTAG: -0.604 z-score
TTAGATATCAAACTGGATTAGTGCTAG: -0.0394 z-score
TTAGATTTCAGACTGGGTTAGTGCTAG: 0.117 z-score
GACAGTATCGGTATCGGGACGTGCTAG: 1.3 z-score
TTACGTCTCGGACTGGGTTAGTGCTAG: 0.383 z-score
TCATTTGTATTTTTGATACTGTGCTAG: 1.5 z-score
TCACTTTCCTTCTTGATACTGTGCTAG: 2.42 z-score
GACGGTCTCCTACTGCGGACGTGCTAG: -0.0748 z-score
GACGGTGTCCTTTTCCTGACGTGCTAG: 0.0684 z-score
GACGGTTTCGGGTTTCGAGACGTGCTA: 12.3 z-score
GTCGGTATCGGTATCGGGACGTGCTAG: 1.95 z-score
TCACCTCTGTTTTGAGCACTGTGCTAG: 0.533 z-score
GGGTCTCTTGTTCTCTCTGGGTGCTAG: 1.13 z-score
ATAGGTTCCGGTTTCGGTTAGTGCTAG: 11.4 z-score
GTGGGACCCATGAACACTCAGTGCTAG: -0.233 z-score
TTAGGTTTCCTTTTCCTTTTGTGCTAG: 7.07 z-score
TTCGGTATCGGGACTGGGTTAGTGCTA: 0.331 z-score
TTATGTTTCGGTATCGGTTAGTGCTAG: 6.02 z-score

Block 3 — target: human cyclin B2; effect on: peptide binding; technique: yeast competitive growth sequencing; form: peptide; organism: Saccharomyces cerevisiae; strain: cyclin B2-Cln2 fusion; tested at: concentration not given; setting: peptide tiling library; direction: direction not given; endpoint: binding enrichment score
SPPRGRRLFPPGPAGF: -0.565
VKTKKRLNFDDK: 0.132
SMTDFYHSKRRLIFSK: -0.119
RKLDLEGIGR: 0.918
RRRIKLPESDSSED: 0.777
RQVRRDLFAF: -0.156
EHCRVLFLDHVMYTIH: 0.391
PKRAKRKLYTSEISSP: 0.282
PKNAKRNLSSEFAN: 0.822
ISRLFPPRTPGWHQLQ: 1.18
RRRRLLFWDKETQI: 0.501
IFNKPECGRVQRAIFQ: 0.706
SPREGHMMDALYAQVK: 0.998
NLEPNAEFDKRTEFIT: 0.494
ASVLSKPIFCFVKD: -0.745
SFLIEYEFLIPPSLKP: -0.165
ELGMEHCEKFEISETS: -0.541
DSGFCLDSPGPLDSKE: -1.15
TTTTSPRTPPPLTVQD: -0.456
GPVKLEFDVSDGAT: -0.285
KVKRRLDLDIDGLQKE: 1.22

Block 4 — technique: universal PBM; form: double-stranded DNA, one strand shown; matrix: in vitro; tested at: not given; direction: higher = stronger binding; endpoint: E-score
Target: Sal-like protein 4, full length isoform B (SALL4, Homo sapiens, UniProt Q9UJQ4-2, residues 1-616)
Setting: 8-mer, flanks averaged, mean of replicates
ACCACTAT: 0.0917
CGAAGCGC: -0.224
AGTACGCA: -0.0436
AACGCTCT: -0.163
GATACAAC: 0.108
GAACTCAC: -0.0177
ATCTACGG: 0.0407
AAATCGAA: 0.105
GACGTACC: -0.0921
ATTCGATG: -0.00831
CTTCAGTC: -0.0791
AAATTTGT: 0.321
ACTCATAG: 0.0877
GACACAAC: 0.158
AGGCAGAC: -0.209
ATTTATCA: 0.291
ACGCGTTA: -0.0638

Block 5 — technique: RNA Bind-n-Seq; form: RNA; matrix: in vitro; tested at: 200 nM; setting: whole 134-nt RNA, ends assumed; with: 150 mM LiCl; reference: input library; direction: higher = stronger binding; endpoint: log2 enrichment; all molecules: 7-deaza-guanosine replaces G
Target: Ras GTPase-activating protein-binding protein 1, full length (G3BP1, Homo sapiens, UniProt Q13283)
UniProt Q13283, sequence (whole entry, looked up): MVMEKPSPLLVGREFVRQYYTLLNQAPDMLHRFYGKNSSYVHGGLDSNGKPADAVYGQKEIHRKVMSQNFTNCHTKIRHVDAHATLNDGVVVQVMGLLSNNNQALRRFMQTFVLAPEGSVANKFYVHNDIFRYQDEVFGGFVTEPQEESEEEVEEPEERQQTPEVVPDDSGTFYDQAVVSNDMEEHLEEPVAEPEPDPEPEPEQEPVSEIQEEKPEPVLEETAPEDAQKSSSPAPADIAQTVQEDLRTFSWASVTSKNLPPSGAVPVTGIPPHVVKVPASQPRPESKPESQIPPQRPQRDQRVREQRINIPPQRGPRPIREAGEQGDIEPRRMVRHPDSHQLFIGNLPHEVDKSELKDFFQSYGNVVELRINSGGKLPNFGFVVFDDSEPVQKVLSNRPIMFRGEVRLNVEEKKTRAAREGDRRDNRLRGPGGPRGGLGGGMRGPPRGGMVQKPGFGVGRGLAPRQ
Shared flanks, not repeated: GGGAGUUCUACAGUCCGACGAUC … UGGAAUUCUCGGGUGUCAAGG
UGGGAGGUGGAUUUUGUUUAUUUUUUUAGCUCAUUUCCAGGGGUGGGAAUUUUUUUUUAAUAUGUGUGAUGAAUAAAGUUGUUUUUGAAA: 0.0364
GUCCUGUGCUACACAUCGUAUGUACCGAAUCAAAUUUUUAAAUUUUUUUAAACCCAAAAAAGUAUUAUGUUACGCCGUUCGGAUCUGCAC: -0.785
AGUCCUGUGCUACACAUCGUAUGUACCGAAUCGGGGUUUUUGGGGUUUGGGGUGGGGAAAGUAUUAUGUUACGCCGUUCGGAUCUGCACU: -0.245
CACAGACAACACGAAACCACACAGACACAGAGGGAAGGGGUUGGGAUGGGGACAGGGUGCACAGCAGGGCGGGGUAGGACCCCAGCCCCU: 0.51
UGGACUGCCUAUGGAAGAAGAAGUUCAAGAAGGAGCACGAGGAGUUUGAGACCAUGGAGAACGUGAACCGCCUUCUUCUGGAGAACGUCC: -0.63
CAAGUCCUGUGCUACACAUCGUAUGUACCGAAUCGGCCCCGGGCCCCGGGCCCCGGAAAGUAUUAUGUUACGCCGUUCGGAUCUGCACUU: -0.6
GCAGGAAGUAAAAACAAAUGGAAAUGCUUCGGAUAGUGGCAGGGGUGGGGGUUGCUAAGGAAAGGGUGGGAUGGGAGUAGGUAAAGAGUU: 0.151
CAAGUCCUGUGCUACACAUCGUAUGUACCGAAUCGGUUUUUUUGGAGGAAAAAGGAAAGUAUUAUGUUACGCCGUUCGGAUCUGCACUUC: -0.671
AGUCCUGUGCUACACAUCGUAUGUACCGAAUCGGGUUUUUGGUUUUUGGGUUUUUGGAAAGUAUUAUGUUACGCCGUUCGGAUCUGCACU: -0.94
CCUGUGCUACACAUCGUAUGUACCGAAUCGGGAAAAAAAGGGAAAAAAAGGAAAAAAAGGAAAGUAUUAUGUUACGCCGUUCGGAUCUGC: -0.00014
UGGGAGGUGGAUUUUGUGUAUUUUUUUAGCUCAUUUCCAGGGGUGGGAAUUUUUUUUUAAUAUGUGUCAUGAAUAAAGUUGUUUUUGAAA: 0.153

Some of these lines once more (block 4):
GACACAAC: 0.158
CTTCAGTC: -0.0791
AGGCAGAC: -0.209
CGAAGCGC: -0.224
AGTACGCA: -0.0436
ATCTACGG: 0.0407
